Published values from different studies.
Parts stem from different laboratories: compare values within a part only.

Set 1
Target: Centromere-binding protein 1, full length, N-terminal tag (CBF1, Saccharomyces cerevisiae, UniProt P17106, residues 1-351)
Sequence of UniProt P17106 (whole entry, looked up): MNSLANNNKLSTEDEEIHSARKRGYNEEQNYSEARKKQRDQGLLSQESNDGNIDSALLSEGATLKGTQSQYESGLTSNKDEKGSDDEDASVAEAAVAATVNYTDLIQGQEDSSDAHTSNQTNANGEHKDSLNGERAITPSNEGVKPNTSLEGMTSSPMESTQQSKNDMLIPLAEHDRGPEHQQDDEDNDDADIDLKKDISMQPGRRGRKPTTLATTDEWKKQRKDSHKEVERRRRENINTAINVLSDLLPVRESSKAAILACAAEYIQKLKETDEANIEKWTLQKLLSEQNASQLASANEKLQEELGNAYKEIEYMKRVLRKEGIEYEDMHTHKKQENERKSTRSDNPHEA
Method: protein-binding microarray
Molecule type: double-stranded DNA, one strand shown
Medium: in vitro
Tested at: 0.8 µM
Notes: whole 60-bp probe, no competitor
Direction: higher = stronger binding
Constant ends, left off below: … GTCTTGATTCGCTTGACGCTGCTG
Strand | fluorescence intensity
CCTAACTACTATAAGCTCGTGCTATAGCTTCGTACA | 613 a.u.
GAAAAGTGGTAGGGTAAGCACGTGTGTGTTATTTAG | 6410 a.u.
GAACTTTTATTAAGTCTGATGACTATTTCTCATTAG | 627 a.u.
GAAGATGCTGATGCTGATGTTGTGCTATATGCTTAG | 539 a.u.
CTATTCATAGCATATCTGGTGGATCGTCTCTATTTC | 511 a.u.

Set 2
Target: Histone acetyltransferase KAT6A, both winged helices, GST fusion (KAT6A, Homo sapiens, UniProt Q92794, residues 1-181)
Method: protein binding microarray
Molecule type: double-stranded DNA, one strand shown
Medium: in vitro
Tested at: not given
Notes: 8-mer, flanks averaged, mean of 2 arrays, mostly near background
Reference: not given
Direction: higher = stronger binding
Target sequence (chain): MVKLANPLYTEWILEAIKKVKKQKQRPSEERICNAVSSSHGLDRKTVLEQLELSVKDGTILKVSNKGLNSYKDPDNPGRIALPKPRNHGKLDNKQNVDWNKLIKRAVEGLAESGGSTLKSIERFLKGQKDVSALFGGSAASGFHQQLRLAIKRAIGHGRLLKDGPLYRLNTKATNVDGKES
Strand | E-score
ACCCAGAG | -0.187
TCGGCAGA | 0.111
CAGTTTCA | -0.0811
ACCATAAG | -0.0917

Set 3
Target: Interferon regulatory factor 5, full length, phosphomimetic (IRF5, Homo sapiens, UniProt Q13568-2, residues 1-514, K96S/S451D/S453D/S456D/S462D)
Method: protein-binding microarray
Molecule type: double-stranded DNA, one strand shown
Medium: in vitro
Tested at: 250 nM
Notes: 60-bp whole probe
With: salmon DNA 0.4 mg/ml
Reference: random background probes
Direction: higher = stronger binding
Constant ends, left off below: GCCTAGCAC … GTCTTGATTCGCTTGACGCTGCTG
Strand | log fluorescence [z-score]
TCATGTTTGTGTGTGTAACTGTGCTAG | 0.221
TCACTATTATATATATCACTGTGCTAG | 1.51
TTAGGTTTCCTTTTCCTTTGGTGCTAG | 1.26
GACGGGCTGGGTCTCGGGACGTGCTAG | -0.741
TCATTTTCCCCCCTCACACTGTGCTAG | 0.854
TTAGGTTTCCTGCTGCTTTAGTGCTAG | 0.254
TTAGGTTTCGACTATCGGGTAGTGCTA | 8.16
TTAGGTATGGGGACTGGGTTAGTGCTA | 0.0239

Further values, each from its own experiment
Substance | target | assay | system | conditions | scale | endpoint | result
PhoQ, residues 284 288 289 292 302 303 SLGVVW | PhoP, residues 12 14 15 18 19 NYFTV (Escherichia coli, UniProt P23836) | Sort-seq, refers to: YFP reporter | E. coli | PhoQ-PhoP variant library, with: 10 µM Mg2+ | reference: high Mg2+ state, higher = stronger signaling | fold induction | 15.9
